Measurements gathered from unrelated publications.
Protocols differ between the studies behind these lines.
Sigmar1: Sigma non-opioid intracellular receptor 1 (Sigmar1, Rattus norvegicus, UniProt Q9R0C9)
Oprk1: Kappa-type opioid receptor (Oprk1, Rattus norvegicus, UniProt P34975)
Phospholipase D2: Phospholipase D2 (Homo sapiens, UniProt O14939)

| Structure (SMILES) | target | test | test system | conditions | scale | selectivity ratio |
| --- | --- | --- | --- | --- | --- | --- |
| O=c1sc2ccccc2n1CCCCCN1CCCCCC1 | Sigmar1 |  |  |  | relative to: Ki sigma-2 over Ki sigma-1 | 0.4 |
| CC(=O)N[C@@H](Cc1ccccc1)C(=O)N[C@@H](Cc1ccccc1)C(=O)N[C@@H](Cc1c[nH]c2ccccc12)C(=O)N[C@@H](CCCNC(=N)N)C(=O)N[C@@H](CC(C)C)C(=O)N[C@@H](CCCNC(=N)N)C(=O)N[C@@H](CCCNC(=N)N)C(=O)N[C@H](C)C(=O)N[C@@H](CCCNC(=N)N)C(=O)N1CCC[C@H]1C(=O)N[C@@H](CCCCN)C(N)=O | Oprk1 | binding, [3H]diprenorphine competition | CHO cells |  | relative to: Ki mu over Ki kappa, higher = more kappa-selective | 73 |
| CN[C@@H](C)C(=O)N[C@H]1CN(C(=O)Cc2ccccc2)CC[C@H]2CC[C@@H](C(=O)NCc3ccc(C(F)(F)F)cc3)N2C1=O | Baculoviral IAP repeat-containing protein 2, BIR3 domain (BIRC2, Homo sapiens, UniProt Q13490) | fluorescence polarization |  | BIR3 domain | relative to: cIAP1 over XIAP | > 900 |
| CC(=O)N(C)[C@@H](Cc1ccccc1)C(=O)N[C@@H](Cc1ccccc1)C(=O)N[C@@H](Cc1ccc2ccccc2c1)C(=O)N[C@@H](CCCNC(=N)N)C(=O)N[C@@H](CC(C)C)C(=O)N[C@@H](CCCNC(=N)N)C(=O)N[C@@H](CCCNC(=N)N)C(=O)N[C@H](C)C(=O)N[C@@H](CCCNC(=N)N)C(=O)N1CCC[C@H]1C(=O)N[C@@H](CCCCN)C(N)=O | Oprk1 | binding, [3H]diprenorphine competition | CHO cells |  | relative to: Ki mu over Ki kappa, higher = more kappa-selective | 4.5 |
| Oc1ccc(C2COc3cc(O)ccc3C2)cc1 (racemic) | Estrogen receptor (ESR1, Homo sapiens, UniProt P03372) | array formation | PRL-HeLa |  | relative to: ERα EC50 versus ERβ EC50 | > 5 fold |
| C[C@@H]1NC(=O)[C@H](CCCNC(=N)N)NC(=O)[C@H](NC(=O)[C@H](Cc2ccccc2)NC(=O)CNC(=O)CNC(=O)[C@H](Cc2ccc(O)cc2)NCc2ccccc2)CC(=O)NC[C@@H](C(=O)N[C@@H](CCCNC(=N)N)C(=O)N2CCC[C@H]2C(=O)N[C@@H](CCCCN)C(N)=O)NC1=O | Oprk1 | binding |  |  | relative to: Ki(MOR) over Ki(KOR) | > 34 |
| O=C(NCCN1CCC2(CC1)C(=O)NCN2Cc1cccnc1)c1cc2cc(F)ccc2[nH]1 | Phospholipase D2 |  |  |  | relative to: PLD1 IC50 over Phospholipase D2 IC50 | 26 fold |
| Cc1cc(N2CC[C@@](C#N)(C3(C)CC3)C2=O)cc(C(=O)NCc2cc(F)cc(-c3cnn(C)c3)c2)n1 | Proline--tRNA ligase (Plasmodium falciparum, UniProt Q8I5R7) | binding, microscale thermophoresis |  |  | relative to: human over P. falciparum Kd | 0.4 |
| CC(C)C[C@H](NC(=O)[C@H](CCCNC(=N)N)NC(=O)[C@H](Cc1ccccc1)NC(=O)[C@H](Cc1ccccc1)NC(=O)[C@H](Cc1ccccc1)N(C)C(=O)COc1ccccc1)C(=O)N[C@@H](CCCNC(=N)N)C(=O)N[C@@H](CCCNC(=N)N)C(=O)N[C@H](C)C(=O)N[C@@H](CCCNC(=N)N)C(=O)N1CCC[C@H]1C(=O)N[C@@H](CCCCN)C(N)=O | Oprk1 | binding, [3H]diprenorphine competition | CHO cells |  | relative to: Ki mu over Ki kappa, higher = more kappa-selective | 198 |
| CCCc1ccc2c(c1)sc(=O)n2CCCCN1CCCCCC1 | Sigmar1 |  |  |  | relative to: Ki sigma-2 over Ki sigma-1 | 0.7 |
| C[C@]12COc3ccc(OCc4ccccc4)cc3[C@H]1CCN2 | SIGMAR1 (Homo sapiens, UniProt Q99720) | binding, radioligand binding |  |  | relative to: sigma-1 over TMEM97 (sigma-2) | 36 fold |
| CCCCc1ccc2c(c1)sc(=O)n2CCCCN1CCCCCC1 | Sigmar1 |  |  |  | relative to: Ki sigma-2 over Ki sigma-1 | 2.4 |
| COC(=O)C1CCCN1C(=O)C(Cc1ccccc1)N(C)C(=O)CC(O)C(CC(C)C)NC(=O)C(CC(C)C)N(C)C(=O)C(CC(C)C)NC(=O)C(O)C(C)C (centres unmarked) | Cathepsin D (CTSD, Homo sapiens, UniProt P07339) |  |  |  | relative to: cathepsin E IC50 over cathepsin D IC50 | 2 fold |
| CCC(=O)c1ccc2c(c1)sc(=O)n2CCCCCCN1CCCCCC1 | Sigmar1 |  |  |  | relative to: Ki sigma-2 over Ki sigma-1 | 0.1 |
| COC(=O)N(C)[C@@H](Cc1ccccc1)C(=O)N[C@@H](Cc1ccccc1)C(=O)N[C@@H](Cc1ccccc1)C(=O)N[C@@H](CCCNC(=N)N)C(=O)N[C@@H](CC(C)C)C(=O)N[C@@H](CCCNC(=N)N)C(=O)N[C@@H](CCCNC(=N)N)C(=O)N[C@H](C)C(=O)N[C@@H](CCCNC(=N)N)C(=O)N1CCC[C@H]1C(=O)N[C@@H](CCCCN)C(N)=O | Oprk1 | binding, [3H]diprenorphine competition | CHO cells |  | relative to: Ki mu over Ki kappa, higher = more kappa-selective | 355 |
| O=c1sc2ccccc2n1CCCCN1CCCCCC1 | Sigmar1 |  |  |  | relative to: Ki sigma-2 over Ki sigma-1 | 31 |
| N[C@@H](CCC(=O)N[C@@H](CS[Se]Cc1ccc(C(=O)Nc2cc(C(F)(F)F)c(Br)c(C(F)(F)F)c2)cc1)C(=O)NCC(=O)O)C(=O)O | ACP1 (Homo sapiens, UniProt P24666) | enzyme activity, inhibitor |  |  | relative to: IC50 over mPTPA (M. tuberculosis) | > 50 fold |
| O=C(NCCN1CCC2(CC1)C(=O)NCN2C(=O)C1CC1)c1ccc2ccccc2c1 | Phospholipase D2 |  |  |  | relative to: PLD1 IC50 over Phospholipase D2 IC50 | 7 fold |
| O=C(Cc1ccccc1Nc1c(Cl)cccc1Cl)NNC(=S)Nc1ccc(Cl)c(Cl)c1 | MAOB (Homo sapiens, UniProt P27338) | fluorometric |  |  | relative to: IC50 hMAO-A over IC50 hMAO-B | 250 |
| C[C@H](NC(=O)CNC(=O)CNC(=O)[C@H](Cc1ccc(O)cc1)NCc1ccccc1)C(=O)N[C@@H]1CC(=O)NC[C@@H](C(=O)N[C@@H](CCCNC(=N)N)C(=O)N2CCC[C@H]2C(=O)N[C@@H](CCCCN)C(N)=O)NC(=O)[C@H](CCCNC(=N)N)NC(=O)[C@H](CCCNC(=N)N)NC1=O | Oprk1 | binding |  |  | relative to: Ki(MOR) over Ki(KOR) | > 2.5 |
| CCCc1ccc2c(c1)sc(=O)n2CCCCCN1CCCCCC1 | Sigmar1 |  |  |  | relative to: Ki sigma-2 over Ki sigma-1 | 0.3 |
| O=C(O)C=Cc1ccc(C(=C2CCCCC2)c2ccc(O)cc2)cc1 | ESR2 (Homo sapiens, UniProt Q92731) | binding, radioligand displacement |  | added: [3H]estradiol | relative to: ERα over ERβ | ~5 fold |
| CCCCc1ccc2c(c1)sc(=O)n2CCCCCCN1CCCCCC1 | Sigmar1 |  |  |  | relative to: Ki sigma-2 over Ki sigma-1 | 0.3 |
| O=C(O[C@H](CO)C(F)(F)F)N1C[C@@H]2[C@H](C1)[C@H]2c1ccn(-c2ccc(F)nc2)n1 | SLC6A2 (Homo sapiens, UniProt P23975) |  |  |  | relative to: NET Ki over MAGL IC50 | > 400 fold |
| O=c1sc2ccccc2n1CCCCCCN1CCCCCC1 | Sigmar1 |  |  |  | relative to: Ki sigma-2 over Ki sigma-1 | 0.3 |
| CC(C)C[C@H](NC(=O)[C@H](CCCNC(=N)N)NC(=O)[C@H](Cc1c[nH]c2ccccc12)NC(=O)[C@H](Cc1ccccc1)NC(=O)[C@H](Cc1ccccc1)N(C)C(=O)CN)C(=O)N[C@@H](CCCNC(=N)N)C(=O)N[C@@H](CCCNC(=N)N)C(=O)N[C@H](C)C(=O)N[C@@H](CCCNC(=N)N)C(=O)N1CCC[C@H]1C(=O)N[C@@H](CCCCN)C(N)=O | Oprk1 | binding, [3H]diprenorphine competition | CHO cells |  | relative to: Ki mu over Ki kappa, higher = more kappa-selective | 33 |

For quick reference, copied from above:
| Structure (SMILES) | target | test | test system | conditions | scale | selectivity ratio |
| --- | --- | --- | --- | --- | --- | --- |
| O=C(O)C=Cc1ccc(C(=C2CCCCC2)c2ccc(O)cc2)cc1 | ESR2 (Homo sapiens, UniProt Q92731) | binding, radioligand displacement |  | added: [3H]estradiol | relative to: ERα over ERβ | ~5 fold |
| CCCCc1ccc2c(c1)sc(=O)n2CCCCN1CCCCCC1 | Sigmar1 |  |  |  | relative to: Ki sigma-2 over Ki sigma-1 | 2.4 |
